Results from different studies.
Every numbered part comes from another study and shows a few of its results, in no order.

Sample 1
Target: Histone acetyltransferase KAT6A, winged helix 2, GST fusion (KAT6A, Homo sapiens, UniProt Q92794, residues 85-181)
Technique: protein binding microarray
Form: double-stranded DNA, one strand shown
Sample: in vitro
Tested at: not given
Setting: 8-mer, flanks averaged, mean of 2 arrays, mostly near background
Baseline: not given
Direction: higher = stronger binding
Measurement: E-score
Residues (chain): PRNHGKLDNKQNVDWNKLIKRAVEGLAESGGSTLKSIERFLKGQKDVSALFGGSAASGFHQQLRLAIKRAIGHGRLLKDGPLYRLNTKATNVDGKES
AATTCGCA: 0.117
AATTTCGG: 0.0201
CACTGGCA: 0.113
GCGCGGCC: 0.256
CCTATCAA: 0.0893
AACGCGTC: 0.15
GTTCCTTA: 0.0947
ACTGAACT: -0.17
GTGAGTCA: -0.0766
CTTATTCC: -0.111
ATGCTGGC: 0.0164
TACACGAA: 0.134
CCAGTACG: -0.162
AGGTCAGG: 0.1
CATATGAA: -0.0877
GGGCACAC: 0.0402
CCCGGTAA: -0.0108

Sample 2
Target: Prothrombin, mature alpha-thrombin (F2, Homo sapiens, UniProt P00734)
Technique: aptamer microarray, sandwich
Form: DNA with 2'F-ANA
Sample: in vitro
Tested at: 200 nM
Setting: whole 15-mer aptamer, many near background
With: Cy3 exosite-II aptamer, 400 nM
Direction: higher = stronger binding
Measurement: mean fluorescence intensity
Oligonucleotide: GGTTGGTGTGGTTGG
2'F-ANA at 1 2 3 4 8 10 11 12: 68.8 a.u.
2'F-ANA at 2 3 7 8 13 14: 488 a.u.
2'F-ANA at 1 2 4 6 8 9 11 13 15: 73.5 a.u.
2'F-ANA at 2 5 7 8 10 15: 50.4 a.u.
2'F-ANA at 1 5 9: 58.9 a.u.
2'F-ANA at 4 5 6 8 11 13: 51.1 a.u.
2'F-ANA at 3 7 11 12: 1280 a.u.
2'F-ANA at 3 5 6 8 9 10 11 12 14 15: 77.4 a.u.
2'F-ANA at 1 2 6 9 10 11 15: 54.7 a.u.
2'F-ANA at 2 3 4 5 6 7 8 10 11 12 13 15: 71.4 a.u.
2'F-ANA at 1 2 3 6 7 10: 64.8 a.u.
2'F-ANA at 1 4 5 7 8 11 12 13 14: 44.6 a.u.
2'F-ANA at 2 7 9 10 11 12: 167 a.u.
2'F-ANA at 6 9 11 12 14 15: 184 a.u.
2'F-ANA at 5 9 10 11 13 15: 61.2 a.u.
2'F-ANA at 1 3 7 9 10 12 13 15: 105 a.u.
2'F-ANA at 1 2 4 5 6 8 9 10 14 15: 67 a.u.
2'F-ANA at 2 3 7 9 11 13: 682 a.u.

Sample 3
Target: RNA binding protein fox-1 homolog 2, RRM domain, GST-SBP tag (RBFOX2, Homo sapiens, UniProt O43251-10, residues 100-194)
Technique: RNA Bind-n-Seq
Form: RNA
Sample: in vitro
Tested at: 365 nM
Setting: natural RNA segment, single round, ends assumed
Baseline: no-protein control
Direction: higher = stronger binding
Measurement: RBNS enrichment (R)
Constant ends, left off below: GGGAGUUCUACAGUCCGACGAUC … UGGAAUUCUCGGGUGCCAA
Residues (chain): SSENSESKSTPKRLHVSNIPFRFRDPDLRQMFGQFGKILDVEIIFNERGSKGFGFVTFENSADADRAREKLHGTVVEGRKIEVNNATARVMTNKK
AACUUCGGGGGUCGUUCUGUGCCUUCCAGCAUCUUGUACAGCAAAUCCUGACUCGUGUCUUUUUACCCCCAAGAUAUCUGUCUUCAGUAGCGACUGAAUCUGCCACUCUC: 2.3
UGAGUCAAGUCAAAUAUGUAGAUUGCCUUUGGCAAUUCUUCUUCUCAAGCACUGACACUCAUUACCGUCUGUGAUUGCCAUUUCUUCCCAAGGCCAGUCUGAACCUGAGG: 0.358
UUUGAGGCGAAGGCGUCUGUCUCUUGGCUAUUUUAACCUAAAAUAACAGUCUAGUUAUAUUCCCUCUUCUUGCAAAGCACAAGCUGGGACCGCGAGCACAUUGCAGCCCC: 0.587
CAAUUCUGUGAAGAAAGUCAUUGGUAGCUUGAUGGGGAUGGCAUUGAAUCUGUAAAUUACCUUGGGCAGUAUGGCCAUUUUCACAAUAUUGAUUCUUCCUACCCAAGAGC: 0.583
AUGACAACUUCUAAUUGCCAUGUACAGUAUGUUCAAAGUCAAAUAACUCCUCAUUGUAAACAAACUGUGUAACUGCCCAAAGCAGCACUUAUAAAUCAGCCUAACAUAAG: 0.698
UCCUCUGGAUUGCAGACCACAUCGCACAGACCCCUGGCUCUGACCCCCUCUCAUCCCGGAAGAAGAGGAAGAAGCAGAACAGACUAGUUUUGAGUAAACUCAGUAUGCAU: 0.789
AGUCGUGUGGGUCGAGGAUUCUGUGCCUCCAGGACCAGGGGCCCACCCUCUGCCCAGGGAGUCCUUGCGUCCCAUGAGGUCUUCCCGCAAGGCCUCUCAGACCCAGAUGU: 0.308
CGCCCGGCUCUGUUCAUCCUUUUAAAGGUAGAUCUUUUAUAACAUCCUUUGCCACCUUGAGAUGAUUUAUAGGUAAUAUAAUCUACAUUUGAGUUUAUUCAGACUUAAUU: 0.346

Sample 4
Target: RING finger protein unkempt homolog, zinc fingers 1-6, GST-SBP tag (UNK, Homo sapiens, UniProt Q9C0B0, residues 30-357)
Technique: RNA Bind-n-Seq
Form: RNA
Sample: in vitro
Tested at: not given
Setting: RNA with constant flanks, human-mouse chimeric sites, ends assumed
Baseline: input RNA pool
Direction: higher = stronger binding
Measurement: bound/input enrichment
Constant ends, left off below: GGGAGUUCUACAGUCCGACGAUC … CAACAGAGGAUUGAGCAUCA
Target sequence (chain): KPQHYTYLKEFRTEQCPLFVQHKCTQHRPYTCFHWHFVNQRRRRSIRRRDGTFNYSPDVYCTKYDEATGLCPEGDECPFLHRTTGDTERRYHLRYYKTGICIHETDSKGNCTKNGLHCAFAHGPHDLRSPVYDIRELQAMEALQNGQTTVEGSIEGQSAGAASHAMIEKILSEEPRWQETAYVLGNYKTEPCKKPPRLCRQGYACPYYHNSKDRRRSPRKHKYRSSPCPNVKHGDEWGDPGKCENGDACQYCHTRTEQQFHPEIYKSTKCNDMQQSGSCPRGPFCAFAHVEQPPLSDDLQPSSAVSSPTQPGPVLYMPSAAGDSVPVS
GCAUAUGGUUAUCGAGGAAAGGACUGUAGAGCUAAUGUAUACCUGCUUCCCACAGGGGAGAUAGUUUAUUUUAUCGCCUCAGUGGUAGUCCUGUUUAAUUAUGAGGAGAGGACUCAGCGA: 0.331 ratio
UAAGUCCUGUGCCAGCACUUCGCUCAUAAAGUUUUAAAUUCAAGAAAAAUAGUGUUUGUUUCCUGAUUAUUGUAUCCAAUACUUUAUCUAGUAUGUAACUCACUCUUACUGAUAAUAAAA: 2.28 ratio
CGCUGGCCCAAGCUGAUGUAAAUGUUUGGCCUCCAUCUCUCAGGCACGUGUGCCUUCUCUUAGUCCCUGUUUUCGGGAUGUUAUGAACAGUAUCAUGGUGGUUUGAAAGCACCAGCUUUG: 0.132 ratio
GGACAUCUGUCAAAUUGUUAUGUUCCUGUGAAACAAGUGAACACUCUGAUACACUUCAUCUGCUUGUACAUCUGUAUGAUAGAGAAAUGUAAAUAUGAAUAUAUUUACAAUGUGUCACUU: 0.122 ratio
CCCUCCCCGGGCCACCCACCCCUCCCGGCUCCCCGCCGAGAUCCAGGUUUCUUCUGUUUUCAUAGCAAGCCAGAACAAUGUUCUACGCACAUUUUGUCCUCAGUAAACGAGGGCCUCUGG: 1.52 ratio
CAGUCCCCGUGUCCCAGGGGACAAUGUUGUGAACAAAAACUCAAAGCGGACCCUCUAUUGUAGUUCUUGAUUCUCGAAAUGUGCUAUUAUUGUUUGUAAAAAAGGAAUUUUUUUUAAAGA: 0.682 ratio
GCAAAGGAUGAUGAGGCGGCAGCUGUUGCACUUUCCUCUCUCGUUCAUGCUUUGGAUGACUUAGACAUGGUCGCCAUCGUCCGAUAUGCUUAUGACAAAAGAUCUAAUCCUCAAGUUGGU: 0.0902 ratio
GGGGAGAAACCUUACGAGUGUGUGCAGUGUGGGAAAUCGUAUAGUCAGAGCUCAAACCUUUUUAGACAUCAGAGACGACACAAUGCAGAAAAACUUUUGAAUGUUGUGAAGGUUUAAGAA: 0.76 ratio

Other studies, line by line
PhoQ, residues 284 288 289 292 302 303 SLANIV  fold induction (PhoP, residues 12 14 15 18 19 IQFRS (Escherichia coli, UniProt P23836); Sort-seq, refers to: YFP reporter; E. coli; PhoQ-PhoP variant library, with: 10 µM Mg2+; baseline: high Mg2+ state, higher = stronger signaling): 16.2

For quick reference, copied from above (sample 1):
AACGCGTC: 0.15
AGGTCAGG: 0.1
TACACGAA: 0.134
